Assay results of several laboratories.
Compare with care: the assays were run in different laboratories. Values joined by “and” are separate records of one study, mostly repeats; a detail may differ. ± gives the spread as reported.
ppa: Inorganic pyrophosphatase (ppa, Escherichia coli, UniProt P0A7A9)
UniProt P0A7A9, sequence (whole entry, looked up): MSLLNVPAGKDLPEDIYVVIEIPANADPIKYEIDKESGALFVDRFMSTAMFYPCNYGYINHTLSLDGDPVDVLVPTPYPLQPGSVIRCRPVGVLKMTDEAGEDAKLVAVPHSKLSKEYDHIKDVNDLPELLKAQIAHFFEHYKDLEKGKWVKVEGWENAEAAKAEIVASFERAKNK
NNMT SAM-bound: Nicotinamide N-methyltransferase, SAM-bound (NNMT, Homo sapiens, UniProt P40261)
UniProt Q9SZU7, sequence (whole entry, unmodified, looked up): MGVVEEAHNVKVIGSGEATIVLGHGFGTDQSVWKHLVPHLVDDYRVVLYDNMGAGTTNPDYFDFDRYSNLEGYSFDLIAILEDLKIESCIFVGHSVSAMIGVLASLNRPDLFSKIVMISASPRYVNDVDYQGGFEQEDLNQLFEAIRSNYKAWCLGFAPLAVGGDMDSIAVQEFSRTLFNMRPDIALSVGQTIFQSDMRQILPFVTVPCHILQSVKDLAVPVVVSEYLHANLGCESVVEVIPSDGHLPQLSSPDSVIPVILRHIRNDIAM
UniProt P40261, sequence (whole entry, looked up): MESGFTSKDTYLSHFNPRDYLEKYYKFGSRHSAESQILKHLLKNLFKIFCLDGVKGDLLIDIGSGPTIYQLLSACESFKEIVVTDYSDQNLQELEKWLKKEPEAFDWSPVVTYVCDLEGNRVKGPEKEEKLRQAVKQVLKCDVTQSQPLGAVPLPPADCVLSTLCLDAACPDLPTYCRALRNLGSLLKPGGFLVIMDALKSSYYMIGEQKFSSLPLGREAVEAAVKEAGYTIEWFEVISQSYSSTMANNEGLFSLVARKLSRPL
UniProt Q68D91, sequence (whole entry, looked up): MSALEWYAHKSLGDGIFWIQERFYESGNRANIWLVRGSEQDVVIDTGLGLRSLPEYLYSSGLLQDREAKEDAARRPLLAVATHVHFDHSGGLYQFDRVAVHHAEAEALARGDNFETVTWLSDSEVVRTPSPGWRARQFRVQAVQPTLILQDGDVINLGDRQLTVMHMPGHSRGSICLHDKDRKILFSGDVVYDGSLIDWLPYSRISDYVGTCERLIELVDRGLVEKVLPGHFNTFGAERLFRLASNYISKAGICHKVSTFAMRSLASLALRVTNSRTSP
UniProt O14733, sequence (whole entry, looked up): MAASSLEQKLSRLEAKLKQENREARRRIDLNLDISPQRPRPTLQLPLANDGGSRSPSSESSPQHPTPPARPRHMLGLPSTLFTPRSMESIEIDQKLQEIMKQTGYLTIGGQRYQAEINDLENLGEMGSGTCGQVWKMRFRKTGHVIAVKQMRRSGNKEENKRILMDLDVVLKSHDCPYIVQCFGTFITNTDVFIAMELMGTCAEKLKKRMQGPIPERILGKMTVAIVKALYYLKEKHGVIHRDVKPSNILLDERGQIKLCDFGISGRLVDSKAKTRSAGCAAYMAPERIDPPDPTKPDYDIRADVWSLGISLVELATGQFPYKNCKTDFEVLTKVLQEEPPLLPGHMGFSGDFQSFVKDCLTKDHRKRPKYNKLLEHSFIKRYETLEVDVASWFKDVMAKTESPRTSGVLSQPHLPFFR

COc1ccc(Br)cc1C[N+](C)(C)CCCN1c2ccccc2CCc2ccc(Cl)cc21 gave an IC50 of 28 µM (ppa; inhibitor, counter-screen, coupling enzyme alone).
For Cc1cccc2c1N(C(=O)n1ccnn1)CC2, the Kd was 10.8 µM and 12.5 µM and 9.35 µM (KAI2 (Arabidopsis thaliana, UniProt Q9SZU7, L218A); ITC; L218A mutant).
CCc1nc2cc3ccccc3cc2cc1C(=O)N1CCC[C@H]1C(=O)N[C@@H](CCC/C=C/CCC[C@H](NC(=O)[C@@H]1CCCN1C(=O)c1cc2cc3ccccc3cc2nc1CC)C(=O)N[C@@H](CCCCN)C(=O)NCCCN)C(=O)N[C@@H](CCCCN)C(=O)NCCCN gave a Kd of 1.38 µM (HIV-1 frameshift site RNA; SPR).
With COc1ccc(C(N)=O)cn1 the Kd was 2 µM (NNMT SAM-bound; substrate, SPR; 20 °C, together with: SAM).
CCOC1c2cc3c(cc2-c2c1c(COC)cc1cc(OC)c(OC)cc21)OCO3 (racemic) gave a Kd of 0.512 µM (Hypoxia-inducible factor 1-alpha, part: C-terminal residues 575–826 (HIF1A, Homo sapiens, UniProt Q16665); binding).
For Cc1ccc2c(c1Br)C(O)(CC(=O)c1ccc3c(c1)OCO3)C(=O)N2 (centres unmarked), the IC50 was over 30 µM (ppa; inhibitor, counter-screen, coupling enzyme alone).
For CC(O)CN1CC(=O)C(c2nc(-c3ccc(Cl)cc3)cs2)=C1N (centres unmarked), the Kd was 0.51 µM (Hepatitis A virus cellular receptor 2 (Homo sapiens, UniProt Q8TDQ0); microscale thermophoresis).
The Kd of COc1ccc(C(=O)NO)cc1NC(=O)c1ccc(-c2ccccc2)cc1 is reported as 12.9 µM (MBLAC2 (Homo sapiens, UniProt Q68D91); inhibitor, competition pulldown; SW620 and MV4-11 lysate; 1 h).
CC(=O)N[C@H]1[C@@H](OC(=O)NCCOCCOCCNC(=O)O[C@H]2O[C@H](CO)[C@@H](O)[C@H](O)[C@H]2NC(C)=O)O[C@H](CO)[C@@H](O)[C@@H]1O gave a Kd of 1.92 ± 0.06 µM (wheat germ agglutinin; ITC; pH 7.0, 298 K).
For CCc1nc2cc3ccccc3cc2cc1C(=O)N1CCC[C@H]1C(=O)N[C@@H](C/C=C\C[C@H](NC(=O)[C@@H]1CCCN1C(=O)c1cc2cc3ccccc3cc2nc1CC)C(=O)N[C@@H](CCCCN)C(=O)NCCCN)C(=O)N[C@@H](CCCCN)C(=O)NCCCN, the Kd was 1.14 µM (HIV-1 frameshift site RNA; SPR).
NC(N)=NN=Cc1cccc(C=NN=C(N)N)c1 has a Kd of 8.3 ± 0.8 µM (VPS26A/VPS35/VPS29 (Homo sapiens, UniProt O75436+Q96QK1+Q9UBQ0); binding).
With CCc1nc2cc3ccccc3cc2cc1C(=O)N[C@@H](CCCCN)C(=O)N[C@@H](C/C=C/C[C@H](NC(=O)[C@H](CCCCN)NC(=O)c1cc2cc3ccccc3cc2nc1CC)C(=O)N1CCC[C@H]1C(=O)NCCCN)C(=O)N1CCC[C@H]1C(=O)NCCCN the Kd was 0.0539 µM (HIV-1 frameshift site RNA; SPR).
CNc1cc(Cl)c(C(N)=O)cn1 has a Kd of 20 µM (NNMT SAM-bound; substrate, SPR; 20 °C, together with: SAM).
C=CC(=O)N1CCCN(C(=O)c2cc(Sc3cnc(NC(=O)C4CC4)s3)c(C)cc2OC)C[C@H]1C gave a Kd of over 10 µM (Dual specificity mitogen-activated protein kinase kinase 7 (MAP2K7, Homo sapiens, UniProt O14733); binding, competition with immobilised ligand).

For quick reference, copied from above:
For CC(O)CN1CC(=O)C(c2nc(-c3ccc(Cl)cc3)cs2)=C1N (centres unmarked), the Kd was 0.51 µM (Hepatitis A virus cellular receptor 2 (Homo sapiens, UniProt Q8TDQ0); microscale thermophoresis).
